Results from different studies.
Each line is one published result; not all experiments were run side by side. Numbers after ± are the reported error.
NR3C1: Glucocorticoid receptor (NR3C1, Homo sapiens, UniProt P04150)
Ppara: Peroxisome proliferator-activated receptor alpha (Ppara, Mus musculus, UniProt P23204)
HSP90AA1: Heat shock protein HSP 90-alpha (HSP90AA1, Homo sapiens, UniProt P07900)
DUSP3: Dual specificity protein phosphatase 3 (DUSP3, Homo sapiens, UniProt P51452)

Amino acid sequences for entries named in this document (tags omitted). A change or cut given only in a name is not applied to a line headed by its entry. Residues count along the entry.
UniProt P04150, whole entry: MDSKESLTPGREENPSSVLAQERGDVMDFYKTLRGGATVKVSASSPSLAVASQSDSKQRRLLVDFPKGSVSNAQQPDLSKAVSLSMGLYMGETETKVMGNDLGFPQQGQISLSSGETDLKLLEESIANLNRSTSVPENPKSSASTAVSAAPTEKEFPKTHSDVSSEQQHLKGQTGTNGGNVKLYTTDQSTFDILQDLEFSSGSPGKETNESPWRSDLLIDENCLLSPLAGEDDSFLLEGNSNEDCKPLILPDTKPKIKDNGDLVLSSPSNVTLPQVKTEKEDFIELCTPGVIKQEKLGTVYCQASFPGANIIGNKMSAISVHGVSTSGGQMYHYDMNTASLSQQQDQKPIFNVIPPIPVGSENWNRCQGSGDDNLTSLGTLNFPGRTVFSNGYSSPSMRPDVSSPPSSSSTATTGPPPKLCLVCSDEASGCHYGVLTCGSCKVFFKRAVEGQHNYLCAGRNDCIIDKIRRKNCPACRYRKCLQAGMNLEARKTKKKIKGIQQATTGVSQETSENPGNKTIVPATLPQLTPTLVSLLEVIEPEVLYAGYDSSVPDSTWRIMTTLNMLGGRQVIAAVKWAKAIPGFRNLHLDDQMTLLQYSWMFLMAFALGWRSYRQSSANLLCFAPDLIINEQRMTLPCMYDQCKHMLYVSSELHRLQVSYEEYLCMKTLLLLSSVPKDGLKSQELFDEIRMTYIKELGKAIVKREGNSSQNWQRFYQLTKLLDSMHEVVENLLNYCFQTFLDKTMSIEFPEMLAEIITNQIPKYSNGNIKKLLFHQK
UniProt P23204, whole entry: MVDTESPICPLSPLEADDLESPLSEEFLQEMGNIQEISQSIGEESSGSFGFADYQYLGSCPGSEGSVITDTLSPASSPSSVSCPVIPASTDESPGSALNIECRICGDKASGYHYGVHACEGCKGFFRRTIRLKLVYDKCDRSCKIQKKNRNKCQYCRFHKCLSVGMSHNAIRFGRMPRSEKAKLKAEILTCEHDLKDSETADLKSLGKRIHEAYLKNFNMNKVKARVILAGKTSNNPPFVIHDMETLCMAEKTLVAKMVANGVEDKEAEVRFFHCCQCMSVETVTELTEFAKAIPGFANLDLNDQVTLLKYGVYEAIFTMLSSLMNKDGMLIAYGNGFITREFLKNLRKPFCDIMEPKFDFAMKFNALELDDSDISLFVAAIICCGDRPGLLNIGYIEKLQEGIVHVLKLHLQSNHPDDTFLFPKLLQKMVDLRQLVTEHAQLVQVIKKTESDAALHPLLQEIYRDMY
UniProt P51452, whole entry: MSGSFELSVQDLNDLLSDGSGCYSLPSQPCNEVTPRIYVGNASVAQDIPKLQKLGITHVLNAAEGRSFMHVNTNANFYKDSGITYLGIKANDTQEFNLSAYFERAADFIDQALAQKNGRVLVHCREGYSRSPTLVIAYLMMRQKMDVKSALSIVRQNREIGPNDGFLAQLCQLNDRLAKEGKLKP
UniProt P07332, whole entry: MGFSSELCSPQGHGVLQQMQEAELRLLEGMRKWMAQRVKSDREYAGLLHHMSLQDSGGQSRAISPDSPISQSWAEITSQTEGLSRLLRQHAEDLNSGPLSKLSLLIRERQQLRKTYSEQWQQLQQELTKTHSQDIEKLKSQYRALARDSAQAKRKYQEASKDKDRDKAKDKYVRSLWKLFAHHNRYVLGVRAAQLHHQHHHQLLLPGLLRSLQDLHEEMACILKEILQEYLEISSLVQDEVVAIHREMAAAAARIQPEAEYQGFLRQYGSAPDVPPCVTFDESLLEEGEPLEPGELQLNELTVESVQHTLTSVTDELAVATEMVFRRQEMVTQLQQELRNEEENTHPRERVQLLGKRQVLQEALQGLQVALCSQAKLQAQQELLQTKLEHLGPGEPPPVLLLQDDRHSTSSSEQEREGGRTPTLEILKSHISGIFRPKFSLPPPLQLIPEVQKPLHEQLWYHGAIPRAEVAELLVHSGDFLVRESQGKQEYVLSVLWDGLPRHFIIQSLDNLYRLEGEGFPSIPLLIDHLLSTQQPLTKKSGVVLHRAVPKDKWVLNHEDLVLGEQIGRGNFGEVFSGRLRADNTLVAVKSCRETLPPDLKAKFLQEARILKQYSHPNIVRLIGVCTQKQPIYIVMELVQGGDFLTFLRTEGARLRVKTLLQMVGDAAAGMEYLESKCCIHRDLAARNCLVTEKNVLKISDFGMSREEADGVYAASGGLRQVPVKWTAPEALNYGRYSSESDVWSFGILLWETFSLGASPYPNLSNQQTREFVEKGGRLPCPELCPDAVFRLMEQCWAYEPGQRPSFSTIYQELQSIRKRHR
UniProt O15164, whole entry, looked up: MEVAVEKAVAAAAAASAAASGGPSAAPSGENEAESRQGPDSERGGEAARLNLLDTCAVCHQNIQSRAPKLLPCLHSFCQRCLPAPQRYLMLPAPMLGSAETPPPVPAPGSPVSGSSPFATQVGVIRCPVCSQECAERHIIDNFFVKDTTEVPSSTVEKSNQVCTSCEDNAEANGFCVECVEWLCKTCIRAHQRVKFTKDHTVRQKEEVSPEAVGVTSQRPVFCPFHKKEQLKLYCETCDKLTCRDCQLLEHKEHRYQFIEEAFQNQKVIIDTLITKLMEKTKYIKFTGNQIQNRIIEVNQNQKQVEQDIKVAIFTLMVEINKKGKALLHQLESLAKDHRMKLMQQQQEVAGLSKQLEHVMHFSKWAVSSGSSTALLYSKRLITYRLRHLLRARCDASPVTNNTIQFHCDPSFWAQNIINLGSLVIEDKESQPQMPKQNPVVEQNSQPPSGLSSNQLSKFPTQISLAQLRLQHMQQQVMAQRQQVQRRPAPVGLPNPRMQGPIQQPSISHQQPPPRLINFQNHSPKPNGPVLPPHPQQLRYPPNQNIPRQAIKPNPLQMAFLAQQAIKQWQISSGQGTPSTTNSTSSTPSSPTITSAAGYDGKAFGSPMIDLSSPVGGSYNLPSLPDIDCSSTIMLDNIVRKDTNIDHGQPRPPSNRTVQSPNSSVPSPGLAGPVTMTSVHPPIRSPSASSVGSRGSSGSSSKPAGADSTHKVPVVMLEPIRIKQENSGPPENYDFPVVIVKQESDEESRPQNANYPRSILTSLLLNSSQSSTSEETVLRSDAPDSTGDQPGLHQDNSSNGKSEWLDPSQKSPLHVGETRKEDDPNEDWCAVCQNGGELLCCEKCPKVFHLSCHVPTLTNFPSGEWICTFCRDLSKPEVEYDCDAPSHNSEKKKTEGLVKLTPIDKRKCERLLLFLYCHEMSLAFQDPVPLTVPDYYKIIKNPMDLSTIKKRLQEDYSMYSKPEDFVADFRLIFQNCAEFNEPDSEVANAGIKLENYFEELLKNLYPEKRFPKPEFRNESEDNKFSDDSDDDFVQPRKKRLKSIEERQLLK
UniProt O75874, whole entry R132C: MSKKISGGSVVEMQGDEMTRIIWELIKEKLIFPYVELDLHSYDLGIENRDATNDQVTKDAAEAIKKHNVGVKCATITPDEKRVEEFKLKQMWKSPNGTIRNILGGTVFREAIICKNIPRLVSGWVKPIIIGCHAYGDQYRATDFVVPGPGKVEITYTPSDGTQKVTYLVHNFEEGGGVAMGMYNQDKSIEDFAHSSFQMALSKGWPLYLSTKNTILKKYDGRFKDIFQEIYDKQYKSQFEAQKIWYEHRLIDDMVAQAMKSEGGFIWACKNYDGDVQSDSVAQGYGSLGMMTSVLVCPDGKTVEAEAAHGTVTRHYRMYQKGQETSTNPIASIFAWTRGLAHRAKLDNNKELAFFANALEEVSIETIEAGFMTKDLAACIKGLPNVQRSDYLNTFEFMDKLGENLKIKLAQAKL
UniProt P03372, whole entry: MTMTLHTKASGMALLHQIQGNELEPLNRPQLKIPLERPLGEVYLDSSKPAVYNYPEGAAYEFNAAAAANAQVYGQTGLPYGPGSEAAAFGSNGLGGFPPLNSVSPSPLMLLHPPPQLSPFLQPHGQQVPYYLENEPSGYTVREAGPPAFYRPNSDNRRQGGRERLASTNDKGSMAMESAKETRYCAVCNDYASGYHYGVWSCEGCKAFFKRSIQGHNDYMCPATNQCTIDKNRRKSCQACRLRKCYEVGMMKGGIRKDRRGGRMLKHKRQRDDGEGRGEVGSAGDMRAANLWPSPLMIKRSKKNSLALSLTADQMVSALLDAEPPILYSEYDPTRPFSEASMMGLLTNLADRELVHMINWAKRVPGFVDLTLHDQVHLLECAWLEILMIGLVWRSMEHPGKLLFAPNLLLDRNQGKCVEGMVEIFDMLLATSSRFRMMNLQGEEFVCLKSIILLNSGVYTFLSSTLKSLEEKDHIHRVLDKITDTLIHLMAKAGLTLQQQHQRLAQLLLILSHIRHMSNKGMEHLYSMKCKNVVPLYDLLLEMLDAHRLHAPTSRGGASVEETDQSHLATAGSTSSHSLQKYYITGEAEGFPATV
UniProt Q9QWY8, 325-724 limits assumed: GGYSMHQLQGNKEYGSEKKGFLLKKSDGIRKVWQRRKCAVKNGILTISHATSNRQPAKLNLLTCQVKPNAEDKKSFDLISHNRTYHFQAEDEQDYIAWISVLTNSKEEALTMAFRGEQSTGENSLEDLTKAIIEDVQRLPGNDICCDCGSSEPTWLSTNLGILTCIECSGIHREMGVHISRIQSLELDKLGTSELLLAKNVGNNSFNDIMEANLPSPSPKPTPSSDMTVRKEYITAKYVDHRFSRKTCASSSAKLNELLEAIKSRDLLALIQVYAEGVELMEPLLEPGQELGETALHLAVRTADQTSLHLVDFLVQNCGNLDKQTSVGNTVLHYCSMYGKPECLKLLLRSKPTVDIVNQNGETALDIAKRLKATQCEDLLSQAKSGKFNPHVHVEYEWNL
UniProt P48729, whole entry: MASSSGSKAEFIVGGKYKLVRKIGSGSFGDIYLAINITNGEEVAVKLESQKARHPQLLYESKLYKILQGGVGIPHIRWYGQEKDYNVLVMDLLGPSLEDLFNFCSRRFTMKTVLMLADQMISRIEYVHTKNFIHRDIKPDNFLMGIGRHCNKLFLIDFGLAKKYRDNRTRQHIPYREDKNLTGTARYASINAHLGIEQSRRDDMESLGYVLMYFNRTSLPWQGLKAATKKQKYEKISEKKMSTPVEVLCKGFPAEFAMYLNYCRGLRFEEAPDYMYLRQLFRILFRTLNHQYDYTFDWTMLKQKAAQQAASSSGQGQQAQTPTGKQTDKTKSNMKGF
UniProt P17858, whole entry: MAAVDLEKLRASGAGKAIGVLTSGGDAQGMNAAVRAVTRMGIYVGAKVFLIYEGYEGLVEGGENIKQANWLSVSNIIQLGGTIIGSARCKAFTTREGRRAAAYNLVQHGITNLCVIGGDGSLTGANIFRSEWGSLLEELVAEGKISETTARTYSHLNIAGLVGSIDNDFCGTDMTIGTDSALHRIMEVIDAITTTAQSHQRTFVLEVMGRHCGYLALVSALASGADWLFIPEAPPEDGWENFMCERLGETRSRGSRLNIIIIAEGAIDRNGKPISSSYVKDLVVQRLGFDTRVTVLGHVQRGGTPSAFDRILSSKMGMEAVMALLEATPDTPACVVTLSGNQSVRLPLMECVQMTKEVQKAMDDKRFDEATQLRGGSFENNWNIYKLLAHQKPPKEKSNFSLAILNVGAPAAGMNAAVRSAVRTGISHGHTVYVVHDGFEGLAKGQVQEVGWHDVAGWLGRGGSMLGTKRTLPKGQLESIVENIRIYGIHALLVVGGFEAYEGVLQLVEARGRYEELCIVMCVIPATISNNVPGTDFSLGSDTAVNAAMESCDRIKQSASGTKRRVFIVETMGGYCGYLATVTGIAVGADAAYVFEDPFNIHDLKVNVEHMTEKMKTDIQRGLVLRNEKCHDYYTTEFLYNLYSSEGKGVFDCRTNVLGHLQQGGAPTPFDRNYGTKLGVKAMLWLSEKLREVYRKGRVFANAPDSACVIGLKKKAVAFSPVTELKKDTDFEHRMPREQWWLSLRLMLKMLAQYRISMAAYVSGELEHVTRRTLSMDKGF
UniProt P10636, whole entry, looked up: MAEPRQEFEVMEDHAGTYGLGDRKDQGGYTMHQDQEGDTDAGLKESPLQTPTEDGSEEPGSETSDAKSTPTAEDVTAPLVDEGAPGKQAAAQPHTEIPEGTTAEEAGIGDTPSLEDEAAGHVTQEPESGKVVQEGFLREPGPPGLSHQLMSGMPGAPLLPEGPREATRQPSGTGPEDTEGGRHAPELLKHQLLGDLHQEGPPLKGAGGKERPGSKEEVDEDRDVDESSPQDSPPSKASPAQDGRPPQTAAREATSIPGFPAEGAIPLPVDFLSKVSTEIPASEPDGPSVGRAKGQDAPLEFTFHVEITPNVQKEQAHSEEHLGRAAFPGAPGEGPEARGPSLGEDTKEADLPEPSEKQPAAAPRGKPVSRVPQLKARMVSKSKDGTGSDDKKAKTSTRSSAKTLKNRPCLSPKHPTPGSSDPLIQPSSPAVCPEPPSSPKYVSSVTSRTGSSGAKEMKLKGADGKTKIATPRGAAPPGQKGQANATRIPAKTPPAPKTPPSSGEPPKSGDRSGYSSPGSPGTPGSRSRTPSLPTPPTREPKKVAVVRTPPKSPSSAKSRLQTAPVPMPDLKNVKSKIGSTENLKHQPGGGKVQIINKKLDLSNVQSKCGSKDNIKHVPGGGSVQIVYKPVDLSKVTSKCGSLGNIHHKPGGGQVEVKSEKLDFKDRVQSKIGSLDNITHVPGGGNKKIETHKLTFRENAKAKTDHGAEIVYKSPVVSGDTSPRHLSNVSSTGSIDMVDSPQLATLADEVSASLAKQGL

Structure (SMILES)	target or system	test	test system	setting	scale	measurement	value
CCN1CCN(Cc2ccc(NC(=O)c3ccc(C)c(Oc4ncnc5cc(OC)c(OC)cc45)c3)cc2C(F)(F)F)CC1	Tyrosine-protein kinase Fes/Fps (FES, Homo sapiens, UniProt P07332)	KINOMEscan competition binding	–	1.0 µM	–	residual probe binding	0.8%
CC[C@@H]1C(=O)N(C)c2cnc(Nc3ccc(C(=O)NC4CCN(C)CC4)cc3OC)nc2N1C1CCCC1	Transcription intermediary factor 1-alpha (TRIM24, Homo sapiens, UniProt O15164)	–	–	10 µM	–	delta Tm	-0.43 ± 0.18 °C
C[C@]1(O)CC[C@H]2[C@@H]3[C@@H](O)CC4=CC(=O)CC[C@@]4(C)[C@H]3CC[C@]21C	NR3C1	nuclear translocation, agonist, enzyme fragment complementation	–	–	–	EC50	> 9 µM
CC(C)[C@H]1NC(=O)[C@H]([C@@H](C)O)NC(=O)[C@@H](C)NC(=O)[C@H](CCCNC(=N)N)NC(=O)[C@@H](Cc2ccccc2)NC(=O)[C@H](Cc2ccccc2)NC1=O	20S proteasome core particle	proteasome activity, activator	–	–	–	EC50	4 µM
Nc1ccc([N+](=O)[O-])cc1-c1nc2cc(Cl)ccc2n(Cc2ccccc2)c1=O	Cystic fibrosis transmembrane conductance regulator (CFTR, Homo sapiens, UniProt P13569)	short-circuit current, activator	FRT expressing wild-type CFTR	–	–	EC50	0.308 µM
Cc1cccc(NC(=O)c2nn(Cc3cnc[nH]3)c3c2CN(C(=O)c2ccc[nH]2)CC3)c1	Isocitrate dehydrogenase [NADP] cytoplasmic (IDH1, Homo sapiens, UniProt O75874, R132C)	R-2-HG production, inhibitor, LC-MS/MS	HT-1080	24 h	–	EC50	> 36 µM
CC(C)(Oc1ccc(C2CC2(Cl)Cl)cc1)C(=O)O (stereo not drawn)	Ppara	coactivator recruitment, agonist, biolayer interferometry, refers to: PGC-1alpha peptide	–	pH 7.4, 25 °C, 0.1% fatty acid-free BSA	–	EC50	5.4 µM
CCOC(=O)OCOc1c(-c2ccc(Oc3ccc(OC(F)(F)F)cc3)cc2)c(C)nc2cc(OC)c(Cl)cc12	Cytochrome b (MT-CYB, Homo sapiens, UniProt P00156)	enzyme activity	–	–	–	EC50	> 10 µM
O=c1c(O[C@@H]2O[C@H](CO)[C@@H](O)[C@H](O)[C@H]2O)c(-c2cc(O)c(O[C@@H]3O[C@H](CO)[C@@H](O)[C@H](O)[C@H]3O)c(O)c2)oc2cc(O)cc(O)c12	Estrogen receptor (ESR1, Homo sapiens, UniProt P03372)	DNA binding array formation, agonist	PRL-HeLa expressing ESR1-GFP	1 h	–	EC50	2.36 µM
O=C(O)C(Cl)(Cl)Cl	Ppara	coactivator recruitment, agonist, biolayer interferometry, refers to: PGC-1alpha peptide	–	pH 7.4, 25 °C, 0.1% fatty acid-free BSA, sodium salt	–	EC50	900 µM
CSc1ncnc2c1ncn2CC(=O)[C@H]1CC[C@H]2[C@H]3CCC4=CC(=O)CC[C@@]4(C)[C@@H]3CC[C@@]12C	NR3C1	nuclear translocation, agonist, enzyme fragment complementation	–	–	–	EC50	> 9 µM
CCCCCCCC(=O)OCC(COP(=O)(O)OC1C(O)C(O)C(OP(=O)(O)O)C(OP(=O)(O)O)C1O)OC(=O)CCCCCCC (stereo not drawn)	Arf-GAP with SH3 domain, ANK repeat and PH domain-containing protein 1 (Asap1, Mus musculus, UniProt Q9QWY8)	GAP activity, activator	–	no phosphatidylserine, added: myrArf1·GTP substrate	–	EC50	18 µM
CCCC1C/C=C/CCCCC(=NOCC(=O)N2CCCCC2)Cc2c(Cl)c(O)cc(O)c2C(=O)O1 (stereo not drawn)	HSP90AA1	binding, fluorescence polarisation competition	–	E/Z oxime mixture, added: fluorescein-labelled 17-AAG	–	EC50	0.543 µM
Fc1cccc(-n2cnc3c(NCc4nc5cc(Cl)ccc5[nH]4)nc(N4CCNCC4)nc32)c1	Casein kinase I isoform alpha (CSNK1A1, Homo sapiens, UniProt P48729)	KINOMEscan competition binding	–	10 µM	baseline: control	remaining binding	10%
COc1ccc(S(=O)(=O)n2cc(CCN3CCC(=C(c4ccc(F)cc4)c4ccc(F)cc4)CC3)nn2)cc1	ATP-dependent 6-phosphofructokinase, liver type (PFKL, Homo sapiens, UniProt P17858)	enzyme activity, activator, ADP-Glo	–	30 min	–	EC50	56 µM
O=c1/c(=C/c2ccccc2Cl)sc2nc3cc(Br)cnc3n12	Tyrosine-protein phosphatase non-receptor type 1 (PTPN1, Homo sapiens, UniProt P18031)	phosphatase activity, inhibitor	–	added: OMFP	–	IC50	> 100 µM
Fc1cc(-c2ccc3c(n2)[nH]c2ccncc23)ccn1 [isotope labelled]	Microtubule-associated protein tau, paired helical filaments (MAPT, Homo sapiens, UniProt P10636)	radioligand binding	PHF tau brain homogenate	142.86 nM	higher = more binding	specific binding	27.6 a.u.
COc1cc(CC(=O)NCC(NC(=O)C(CCCNC(=O)c2cccc(I)c2)NC(=O)C(Cc2ccc(C(F)(F)P(=O)(O)O)cc2)NC(=O)c2ccc(C)c(Br)c2)C(N)=O)ccc1O (stereo not drawn)	DUSP3	enzyme activity	–	10 µM	–	inhibition	no inhibition
C[C@@]12CC[C@H](O)C[C@@H]1CC[C@@H]1[C@@H]2CC[C@@]2(C)[C@@H](C3=CC(=O)OC3)[C@H](O)C[C@]12O	NR3C1	nuclear translocation, agonist, enzyme fragment complementation	–	–	–	EC50	> 9 µM
O=C(Nc1cccnn1)N1CC(Oc2ccc(-c3ccccc3F)cn2)C1	–	Emax model of Ctrough concentration-response, refers to: plasma PEA	human, plasma	oral, repeated daily dosing	–	Emax	~5 ng/mL
C[C@H](CCC(=O)O)[C@H]1CC[C@@H]2[C@@H]3CC[C@H]4C[C@@H](O)CC[C@@]4(C)[C@@H]3C[C@H](O)[C@@]21C	NR3C1	nuclear translocation, agonist, enzyme fragment complementation	–	–	–	EC50	> 9 µM
CC1/C=C/CCCOC(=O)c2c(O)cc(O)cc2CC(=NOCC(=O)N2CCCCC2)/C=C/C1 (racemic)	HSP90AA1	binding, fluorescence polarisation competition	–	E/Z oxime mixture, added: fluorescein-labelled 17-AAG	–	EC50	0.587 µM
Cc1cc(C)c2nc3s/c(=C\c4ccc(-c5ccccc5C(=O)O)o4)c(=O)n3c2c1	DUSP3	phosphatase activity, inhibitor	–	added: OMFP	–	IC50	5.8 µM
C[C@]1(c2ccccc2)O[C@@H]2C[C@@H]3[C@@H]4CCC5=CC(=O)C=C[C@@]5(C)[C@]4(F)[C@H](O)C[C@]3(C)[C@@]2(C(=O)CO)O1	NR3C1	nuclear translocation, agonist, enzyme fragment complementation	–	–	–	EC50	0.00231 µM

A few entries again:
Structure (SMILES)	target or system	test	test system	setting	scale	measurement	value
CC(C)[C@H]1NC(=O)[C@H]([C@@H](C)O)NC(=O)[C@@H](C)NC(=O)[C@H](CCCNC(=N)N)NC(=O)[C@@H](Cc2ccccc2)NC(=O)[C@H](Cc2ccccc2)NC1=O	20S proteasome core particle	proteasome activity, activator	–	–	–	EC50	4 µM
Fc1cccc(-n2cnc3c(NCc4nc5cc(Cl)ccc5[nH]4)nc(N4CCNCC4)nc32)c1	Casein kinase I isoform alpha (CSNK1A1, Homo sapiens, UniProt P48729)	KINOMEscan competition binding	–	10 µM	baseline: control	remaining binding	10%
C[C@@]12CC[C@H](O)C[C@@H]1CC[C@@H]1[C@@H]2CC[C@@]2(C)[C@@H](C3=CC(=O)OC3)[C@H](O)C[C@]12O	NR3C1	nuclear translocation, agonist, enzyme fragment complementation	–	–	–	EC50	> 9 µM
CC1/C=C/CCCOC(=O)c2c(O)cc(O)cc2CC(=NOCC(=O)N2CCCCC2)/C=C/C1 (racemic)	HSP90AA1	binding, fluorescence polarisation competition	–	E/Z oxime mixture, added: fluorescein-labelled 17-AAG	–	EC50	0.587 µM
